# Results pooled from the literature.
# Each numbered part is a random draw from the data of one study; scales do not carry over between parts. Substitutions count along the parent as printed.

# Series 1
# Target: Prothrombin, mature alpha-thrombin (F2, Homo sapiens, UniProt P00734)
# Technique: aptamer microarray, sandwich
# Molecule type: DNA with 2'F-ANA
# Matrix: in vitro
# Concentration: 200 nM
# Setting: whole 15-mer aptamer, many near background
# Together with: Cy3 exosite-II aptamer, 400 nM
# Direction: higher = stronger binding
# Strand: GGTTGGTGTGGTTGG
Modification,mean fluorescence intensity
2'F-ANA at 1 2 3 4 6 9 12 13 14,124 a.u.
2'F-ANA at 1 3 5 6 7 10 11 12,49.6 a.u.
2'F-ANA at 1 2 3 4 5 9 10 12 14,42.1 a.u.
2'F-ANA at 4 6 8 10,89.5 a.u.
2'F-ANA at 1 2 4 6 9 10 11 12,64.6 a.u.
2'F-ANA at 2 8 9 12 15,711 a.u.
2'F-ANA at 1 5 6 7 9 11 13 14 15,48 a.u.
2'F-ANA at 1 3 4 5 10 12 15,53.2 a.u.
2'F-ANA at 1 3 5 6 7 9 14,95.4 a.u.
2'F-ANA at 4 5 8 9 11 14,47.7 a.u.

# Series 2
# Target: Fragile X messenger ribonucleoprotein 1, C-terminal low-complexity region (Fmr1, Mus musculus, UniProt P35922)
# Technique: RNA Bind-n-Seq
# Molecule type: RNA
# Matrix: in vitro
# Concentration: 200 nM
# Setting: whole 134-nt RNA, ends assumed
# Together with: 150 mM LiCl
# Baseline: input library
# Direction: higher = stronger binding
# Each molecule: 7-deaza-guanosine replaces G
# All sequences stand within: GGGAGUUCUACAGUCCGACGAUC … UGGAAUUCUCGGGUGUCAAGG
Strand,log2 enrichment
UCCUGUGCUACACAUCGUAUGUACCGAAUCAAACCCCCAAACCCCCCCAAACCCCCAAAAAAGUAUUAUGUUACGCCGUUCGGAUCUGCA,0.638
CUGUGCUACACAUCGUAUGUACCGAAUCGGGGAAAAAAAGGGGUUUUUUUGGGGAAAGGGGAAAGUAUUAUGUUACGCCGUUCGGAUCUG,-1.66
UUACAUUACCUGGUGAAAUAGACAUUGACAGUAUCUCCUAUGAAGAGCUUUCACCACCUGAUGAAGAGCCUGCCAAGAAUAAAAAGGAAA,-2.03
UCCUUUCUGUCAUUUUACACCCACAGUUGAAGAUUCCUGUCUCUGGAUCCAAAUCAGAGGGCCUUCUCUACGUCCACUCAUCCAGAGGUG,1.64
CUGUGCUACACAUCGUAUGUACCGAAUCGGGGCCCCCCCGGGCCCCCCCGGGGCCCCCCCGGAAAGUAUUAUGUUACGCCGUUCGGAUCU,-1.48
UGGCCCUGGUGGCAUGCGGGGAGGAAGAGGUGGCCUCAUGGAUCGUGGUGGUCCCGGUGGAAUGUUCAGAGGUGGCCGUGGUGGAGACUG,-0.799
UCAAGUCCUGUGCUACACAUCGUAUGUACCGAAUCGGAGGUUUUUGGAAAAAGGAAAGUAUUAUGUUACGCCGUUCGGAUCUGCACUUCC,-1.88

# Series 3
# Target: Centromere-binding protein 1, full length, His-tagged (CBF1, Saccharomyces cerevisiae, UniProt P17106, residues 1-351)
# Sequence of UniProt P17106 (whole entry, looked up): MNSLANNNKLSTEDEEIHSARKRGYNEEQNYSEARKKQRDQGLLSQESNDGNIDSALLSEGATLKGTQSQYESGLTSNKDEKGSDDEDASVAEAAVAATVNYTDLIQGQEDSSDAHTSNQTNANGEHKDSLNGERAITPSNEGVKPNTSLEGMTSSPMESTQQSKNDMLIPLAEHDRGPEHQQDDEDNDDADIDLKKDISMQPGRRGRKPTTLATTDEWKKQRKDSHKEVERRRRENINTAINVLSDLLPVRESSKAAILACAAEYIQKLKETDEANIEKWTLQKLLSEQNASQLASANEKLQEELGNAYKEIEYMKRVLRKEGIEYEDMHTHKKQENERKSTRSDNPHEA
# Technique: competition protein-binding microarray
# Molecule type: double-stranded DNA, one strand shown
# Matrix: in vitro
# Concentration: 2 µM
# Setting: whole 60-bp probe, lowest competitor level
# Together with: Pho4 competitor, 0.05 µM
# Direction: higher = stronger binding
# All sequences stand within: … GTCTTGATTCGCTTGACGCTGCTG
Strand,fluorescence intensity [a.u.]
TGCGCAACAACTTGCTGCGTGGGTGTATGTCTAGAA,63.7
ACACCATCGCATACCCACGTGGCCGCTTCGTTTGCC,659
TATACTAGGTAGTTACACGTGAAATTATTGAATCAA,985
AAGAAATATTGCCAACACGTGAGATTGAAAAAGCAA,1760
TGCGCAACAACTTTTCACGTGAGTTTATGTCTAGAA,1060
AATTGAAGTGCGAGTCACGTGCAAAGCGACGGTAGT,6740
TGAAGACTTTGCATCTACGTGTCGGACAAGCTGCCC,65.3
AAATTACTAAGTTTTCACGTGCTCTACCCCGTATGA,1450
AAGACCGTATGGGAACACGTGGAGGATTAGGCTCGC,905
TCCGGACCCACCGATTGCGTGATGGCCTGTACAAGG,77
TGAGTACTATGTTATCAGGTGCTGCTGTTATGGATG,181
AAATTACTAAGTTGTCACATAACTTACCCCGTATGA,86.5
AAAGCGGTAATTTTTCACGTGGGTTCACATATCTAT,1030
TTTCTTGGAATTTTTCACATGTTTGCAGTGAATAAA,138
GACCGTCTCTCCCAACACGTGCCAGAGCTTGTTGAT,1490
AAAGCGGTAATTTGCGTGGTGGGTGCAGATATCTAT,80.1
CTTTCCCGATCTTGTTGAGTGGGTGTAGCACATTTG,79.1
CATACCCAACCTTGATGTGTGGGTGAAGATATTTGT,64.2
ATTGTTGCTAAAAACGACATGACAACCATGAAGTAC,92.7

# Series 4
# Target: RNA binding protein fox-1 homolog 2, RRM domain, GST-SBP tag (RBFOX2, Homo sapiens, UniProt O43251-10, residues 100-194)
# Technique: RNA Bind-n-Seq
# Molecule type: RNA
# Matrix: in vitro
# Concentration: 365 nM
# Setting: natural RNA segment, single round, ends assumed
# Baseline: no-protein control
# Direction: higher = stronger binding
# All sequences stand within: GGGAGUUCUACAGUCCGACGAUC … UGGAAUUCUCGGGUGCCAA
# Residues (chain): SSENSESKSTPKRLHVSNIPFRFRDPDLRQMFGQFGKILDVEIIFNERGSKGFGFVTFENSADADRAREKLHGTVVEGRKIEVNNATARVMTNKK
Strand,RBNS enrichment (R)
CCAGAGGAGCUUGUCUUCCUUGUCCUCUGUUCCCACCCUCCCCUGAACAGAACCCAGCCCAUAAGAGACAUUCUCAGAUGAAACUCUGUUUUCUUGCCCCAGUCAGGCUC,0.587
AACCAGUGUGGUUGCCAGAGUGGUCAGGCUGCUCUGAGACAGGGAAGUCUGAUCUCCGCAGGAAACUCUUGUGAAGUAACUGGUGCCUGAGGUGCACUCAAGUGUGGGAC,0.276
ACGGUGCACCAGGUUGACUUGAAUAAAUUUGGCAACCAGGUUUGCAAGCGUGCAGAAACUAACUCCUCUCUCACAAAGGCUUAUAAAAUUGGUGUGUCCUAUGGAAAUGG,1.07
UUCCUUUUGAUGGGGAGAAAGGGCAAAUUAUUUUAAUAUUUUGUAUUUUCAACUUUAUAAAGAUAAAAUAUCCUCAGGGGUGGAGAAGUGUCGUUUUCAUAACUUGCUGA,0.469
CUGUGAGAGAAUGUGUGCAACUACAUGUGUGGGGGCAUGGUAGCUACUGUGUGUGUGAGAUCCUAUAUACCAGCAUGUACCAAGAAUGUGUGUGUAGUUUUAAUUAUGCU,29.4
GCUUAGCUUCUCAAAGGCCUAGCAGAGCUUUGGCACCCCAAGAUCCUUUCUGUAGGCUAUUUCCUCUUGCCCAGCAGUGGAUGGAGCGUCCUUGCUAAAAAGGGUUCCAU,0.206
GUACACCCACCUGUAAAUACUGUAUCCUCAGUUUAGAAAAUUAGUGCAAUGUAUGAAAAUCAAGUGUUAGGAAAUUUCAUGGUUUCACCUAUAACCUUUAUUUUAGAAUU,0.452
GAGGCUCUGCGUUCUGGGGGCUUUUUCUUCUCCUCCCCCUACCCGGUUUCCCUCCCUGUUUUCCUACCUCUACGGCAAGCCCAAAGUGUCUUCCCGGGAGCCCAGCGCAG,0.761
GAUUGUAAAAGAUGAUGCCGAAGAGUUGAUGUCAAUCUUUUUUUCCUAAGAAAAAAAGUCCGCGAGUAUUAAAUAUUUAGAUCAAUGUUUAUAAAAUGAUUACUUUGUAU,0.546
GAAAGAAAAGUGGAUUUGAACUCAGUGUCACAGACUCUUCUGAGUGUUUUAGGGUCACAGCUAGUGUAAGAGGCAUGAAGAAUAGACAUGCAAAAGGGAACGGGUGCACC,1.18
CAAACUCCUUUCUUAUCUUGACCAUACUAAUAAAUAUAAUUUAUAAGCAUUGCCAUUGAAGGCUUAAUUGACUGAAAUUACUUUAACAUUUUGGAAAUUGUUGUAUAUCA,0.667
AAUGCAGAUUGGAUUCUUUGAUGUUCAAAUUUCUCAUUUACUUAUGAAAAUCCCUAAUUAUAUAGUUUUAUAUAAUGUGUAUACAGAGUAGGAUUGUUGAUGAAAUUGAG,0.377

# Series 5
# Target: Histone acetyltransferase KAT6A, winged helix 1, GST fusion (KAT6A, Homo sapiens, UniProt Q92794, residues 1-85)
# Technique: protein binding microarray
# Molecule type: double-stranded DNA, one strand shown
# Matrix: in vitro
# Concentration: not given
# Setting: 8-mer, flanks averaged, mean of 2 arrays, mostly near background
# Baseline: not given
# Direction: higher = stronger binding
# Target sequence (chain): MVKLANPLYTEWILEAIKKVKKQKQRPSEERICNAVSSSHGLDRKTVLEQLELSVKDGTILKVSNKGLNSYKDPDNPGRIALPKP
Strand,E-score
ATGCACAG,-0.131
AGGAAACG,-0.155
AAGCATGA,0.0142
CTACACCC,-0.139
CGATGTAG,0.00607
CCGCGGCC,0.455
CCTTAGGA,-0.162
CGTTGAAC,0.216
ACAATACT,-0.225
CATATTGC,0.154
CATAAAGG,-0.117
GGAAGTGA,0.0589
ACAGGCCA,-0.165
ACAGTCGT,0.0713
ATAGCCGA,0.134
CCCTAGAA,-0.0428
GACTGGCA,-0.0317
ACATCGTC,-0.181
GATCTGAA,-0.188
GGAGCGAA,-0.0955
AAAAAATC,-0.124
ATAGGAAG,-0.036
GGGAATGA,0.0395
CTCGAAAC,-0.149
CCTCGGCC,0.145

# Series 6
# Target: CCNB1, cyclin fold, Cln2 fusion (human)
# Technique: yeast growth competition, sequencing
# Matrix: yeast
# Setting: weak parent motif
# Baseline: not given
# Direction: higher = stronger binding
# Starting sequence: ORC1 docking peptide (human); PRARKRLELGNLG
Variant,normalised enrichment score
PRADKRLELGNLG [R4D],0.269
PRARKRLELNNLG [G10N],0.4
PRARKQLELGNLG [R6Q],0.488
PTARKRLELGNLG [R2T],1.39
PRARKKLELGNLG [R6K],0.226
PRARKRRELGNLG [L7R],1.17
PRARKRYELGNLG [L7Y],1.1
FRARKRLELGNLG [P1F],0.481
PRARKCLELGNLG [R6C],0.916
PRARKHLELGNLG [R6H],0.614
PRARKRLELGGLG [N11G],1.14
PRARKRLEFGNLG [L9F],0.956
GRARKRLELGNLG [P1G],-0.727

# Repeated from above (series 6):
Variant,normalised enrichment score
PRARKQLELGNLG [R6Q],0.488
PTARKRLELGNLG [R2T],1.39
PRARKKLELGNLG [R6K],0.226
PRARKRRELGNLG [L7R],1.17
